Measured values of several laboratories.
Numbered parts are unrelated; each lists some results of a single study.
Sequence of UniProt P10721 (whole entry, unmodified, looked up): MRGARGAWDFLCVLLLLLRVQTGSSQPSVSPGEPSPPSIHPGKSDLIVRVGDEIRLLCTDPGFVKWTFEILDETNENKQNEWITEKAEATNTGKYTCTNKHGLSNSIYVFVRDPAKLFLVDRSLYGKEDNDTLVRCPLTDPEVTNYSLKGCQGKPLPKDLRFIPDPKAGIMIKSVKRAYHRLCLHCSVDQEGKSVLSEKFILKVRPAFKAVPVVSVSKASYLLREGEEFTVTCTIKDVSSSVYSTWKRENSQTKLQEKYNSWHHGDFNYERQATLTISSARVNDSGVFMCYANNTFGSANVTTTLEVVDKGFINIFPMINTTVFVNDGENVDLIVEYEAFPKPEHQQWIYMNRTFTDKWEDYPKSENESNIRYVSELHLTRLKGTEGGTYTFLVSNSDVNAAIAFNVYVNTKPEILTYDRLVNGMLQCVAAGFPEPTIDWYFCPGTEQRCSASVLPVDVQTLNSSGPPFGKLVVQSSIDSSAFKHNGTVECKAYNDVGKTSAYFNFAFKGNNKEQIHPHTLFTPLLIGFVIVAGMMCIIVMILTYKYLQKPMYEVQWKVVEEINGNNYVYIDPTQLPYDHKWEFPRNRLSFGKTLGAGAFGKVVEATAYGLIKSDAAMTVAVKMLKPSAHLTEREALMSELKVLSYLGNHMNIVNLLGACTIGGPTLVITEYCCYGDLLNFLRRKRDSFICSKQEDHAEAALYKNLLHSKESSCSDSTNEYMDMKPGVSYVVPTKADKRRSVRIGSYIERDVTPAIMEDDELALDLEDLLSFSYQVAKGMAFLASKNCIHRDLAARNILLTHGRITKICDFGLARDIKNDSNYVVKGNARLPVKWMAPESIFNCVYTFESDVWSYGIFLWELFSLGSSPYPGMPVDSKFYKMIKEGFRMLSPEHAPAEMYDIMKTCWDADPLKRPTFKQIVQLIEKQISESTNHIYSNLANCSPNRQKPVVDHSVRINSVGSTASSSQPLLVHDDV
Sequence of UniProt O43683 (whole entry, looked up): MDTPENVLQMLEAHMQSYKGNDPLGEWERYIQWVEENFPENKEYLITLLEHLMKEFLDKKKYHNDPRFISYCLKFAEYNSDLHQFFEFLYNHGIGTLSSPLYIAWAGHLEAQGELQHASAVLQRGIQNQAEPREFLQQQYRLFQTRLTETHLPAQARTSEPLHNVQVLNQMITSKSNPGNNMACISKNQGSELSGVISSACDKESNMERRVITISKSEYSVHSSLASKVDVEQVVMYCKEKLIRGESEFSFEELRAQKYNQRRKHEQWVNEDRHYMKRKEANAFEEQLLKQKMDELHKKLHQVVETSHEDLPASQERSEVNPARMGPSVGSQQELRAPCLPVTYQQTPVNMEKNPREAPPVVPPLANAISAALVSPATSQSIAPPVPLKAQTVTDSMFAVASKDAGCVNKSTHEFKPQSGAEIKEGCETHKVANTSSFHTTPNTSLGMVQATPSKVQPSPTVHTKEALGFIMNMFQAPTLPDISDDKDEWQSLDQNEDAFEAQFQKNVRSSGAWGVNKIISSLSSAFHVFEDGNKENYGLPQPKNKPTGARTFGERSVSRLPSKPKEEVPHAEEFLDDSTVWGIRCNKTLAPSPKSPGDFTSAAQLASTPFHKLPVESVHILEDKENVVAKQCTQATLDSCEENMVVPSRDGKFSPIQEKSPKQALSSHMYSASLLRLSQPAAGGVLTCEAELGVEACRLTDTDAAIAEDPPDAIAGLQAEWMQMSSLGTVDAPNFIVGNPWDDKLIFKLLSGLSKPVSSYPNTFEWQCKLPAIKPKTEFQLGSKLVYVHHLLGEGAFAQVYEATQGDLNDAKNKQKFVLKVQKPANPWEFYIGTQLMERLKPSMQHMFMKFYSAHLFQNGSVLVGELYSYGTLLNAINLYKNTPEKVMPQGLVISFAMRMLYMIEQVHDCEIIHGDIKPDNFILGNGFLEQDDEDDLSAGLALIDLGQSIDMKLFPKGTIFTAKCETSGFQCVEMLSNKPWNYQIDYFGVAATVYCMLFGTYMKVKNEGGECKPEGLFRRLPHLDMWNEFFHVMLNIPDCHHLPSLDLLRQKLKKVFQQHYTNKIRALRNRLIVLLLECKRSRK
Sequence of UniProt P07949 (whole entry, looked up): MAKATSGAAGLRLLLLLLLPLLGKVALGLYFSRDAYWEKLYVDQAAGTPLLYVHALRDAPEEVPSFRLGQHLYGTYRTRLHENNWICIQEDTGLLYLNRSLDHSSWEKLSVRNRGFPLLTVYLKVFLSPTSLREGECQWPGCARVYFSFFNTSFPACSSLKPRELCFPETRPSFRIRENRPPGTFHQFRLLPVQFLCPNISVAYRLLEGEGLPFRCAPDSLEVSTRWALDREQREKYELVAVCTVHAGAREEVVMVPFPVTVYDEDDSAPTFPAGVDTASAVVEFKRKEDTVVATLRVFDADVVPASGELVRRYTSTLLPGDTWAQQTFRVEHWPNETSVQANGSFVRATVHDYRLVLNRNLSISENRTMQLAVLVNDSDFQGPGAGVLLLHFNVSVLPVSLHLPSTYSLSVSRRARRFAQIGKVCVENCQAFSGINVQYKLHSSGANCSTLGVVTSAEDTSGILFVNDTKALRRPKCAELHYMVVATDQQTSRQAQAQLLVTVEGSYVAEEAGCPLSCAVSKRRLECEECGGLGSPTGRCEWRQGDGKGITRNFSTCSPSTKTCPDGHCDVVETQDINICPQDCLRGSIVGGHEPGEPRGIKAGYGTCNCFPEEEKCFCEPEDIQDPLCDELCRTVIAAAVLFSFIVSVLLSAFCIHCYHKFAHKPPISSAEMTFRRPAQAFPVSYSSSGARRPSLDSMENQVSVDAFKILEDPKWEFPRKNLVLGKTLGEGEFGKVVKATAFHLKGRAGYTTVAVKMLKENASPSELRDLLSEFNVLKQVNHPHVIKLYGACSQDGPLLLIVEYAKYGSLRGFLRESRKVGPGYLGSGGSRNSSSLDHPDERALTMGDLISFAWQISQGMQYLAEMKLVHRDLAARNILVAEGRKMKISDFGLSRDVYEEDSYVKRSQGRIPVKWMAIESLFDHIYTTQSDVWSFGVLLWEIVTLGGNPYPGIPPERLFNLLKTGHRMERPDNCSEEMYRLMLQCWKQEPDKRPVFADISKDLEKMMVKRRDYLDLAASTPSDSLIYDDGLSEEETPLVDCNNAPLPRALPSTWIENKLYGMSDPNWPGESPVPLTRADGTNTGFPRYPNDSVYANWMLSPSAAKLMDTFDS
Sequence of UniProt Q8N568 (whole entry, looked up): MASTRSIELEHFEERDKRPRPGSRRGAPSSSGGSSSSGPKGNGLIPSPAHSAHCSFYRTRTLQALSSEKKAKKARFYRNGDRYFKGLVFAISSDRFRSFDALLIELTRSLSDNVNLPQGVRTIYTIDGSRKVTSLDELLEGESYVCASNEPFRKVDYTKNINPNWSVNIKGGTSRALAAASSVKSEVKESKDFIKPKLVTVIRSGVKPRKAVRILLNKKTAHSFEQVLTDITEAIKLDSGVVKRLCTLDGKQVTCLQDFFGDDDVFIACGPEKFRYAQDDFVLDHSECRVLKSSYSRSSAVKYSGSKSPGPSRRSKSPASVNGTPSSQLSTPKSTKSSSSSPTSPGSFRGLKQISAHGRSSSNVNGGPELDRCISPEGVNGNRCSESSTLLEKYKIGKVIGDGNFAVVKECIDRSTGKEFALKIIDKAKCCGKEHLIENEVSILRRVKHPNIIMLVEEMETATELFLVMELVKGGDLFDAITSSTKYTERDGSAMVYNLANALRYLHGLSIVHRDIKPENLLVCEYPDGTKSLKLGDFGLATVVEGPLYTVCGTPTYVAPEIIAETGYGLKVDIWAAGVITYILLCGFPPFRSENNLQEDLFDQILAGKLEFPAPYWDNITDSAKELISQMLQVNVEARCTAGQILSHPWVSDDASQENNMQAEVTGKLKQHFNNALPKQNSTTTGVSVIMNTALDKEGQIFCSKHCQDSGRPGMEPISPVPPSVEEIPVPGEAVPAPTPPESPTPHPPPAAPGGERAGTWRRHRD
Sequence of UniProt P42336 (whole entry, unmodified, looked up): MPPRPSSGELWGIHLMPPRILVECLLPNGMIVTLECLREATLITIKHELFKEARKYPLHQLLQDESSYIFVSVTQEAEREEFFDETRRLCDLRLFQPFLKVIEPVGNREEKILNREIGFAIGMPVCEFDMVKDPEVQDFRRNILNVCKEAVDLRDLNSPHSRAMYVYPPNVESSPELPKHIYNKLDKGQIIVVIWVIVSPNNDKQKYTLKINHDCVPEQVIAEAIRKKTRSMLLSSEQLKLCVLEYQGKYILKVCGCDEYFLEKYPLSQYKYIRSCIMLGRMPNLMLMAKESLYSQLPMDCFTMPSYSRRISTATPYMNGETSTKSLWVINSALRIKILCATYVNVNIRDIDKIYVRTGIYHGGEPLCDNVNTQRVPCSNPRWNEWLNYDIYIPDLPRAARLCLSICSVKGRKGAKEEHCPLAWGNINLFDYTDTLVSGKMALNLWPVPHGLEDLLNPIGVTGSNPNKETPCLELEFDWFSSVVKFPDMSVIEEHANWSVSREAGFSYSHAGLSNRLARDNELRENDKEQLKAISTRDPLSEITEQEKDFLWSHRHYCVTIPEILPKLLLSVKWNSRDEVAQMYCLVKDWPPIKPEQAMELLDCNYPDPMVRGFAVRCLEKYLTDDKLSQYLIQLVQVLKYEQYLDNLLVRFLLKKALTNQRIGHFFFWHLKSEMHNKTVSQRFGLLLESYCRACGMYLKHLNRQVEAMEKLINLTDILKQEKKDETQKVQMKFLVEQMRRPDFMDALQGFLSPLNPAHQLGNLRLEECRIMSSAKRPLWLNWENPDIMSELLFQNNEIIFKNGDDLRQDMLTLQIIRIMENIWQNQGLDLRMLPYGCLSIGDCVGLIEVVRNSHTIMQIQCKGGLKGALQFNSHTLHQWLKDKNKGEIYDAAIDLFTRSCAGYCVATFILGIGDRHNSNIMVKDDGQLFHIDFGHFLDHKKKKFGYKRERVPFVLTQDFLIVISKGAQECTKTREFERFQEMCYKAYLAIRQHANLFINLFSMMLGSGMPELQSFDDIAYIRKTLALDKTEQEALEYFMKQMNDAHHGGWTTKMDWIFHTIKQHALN

Block 1 — method: competition with immobilised ligand; tested at: 1 µM
SMILES: CCCOc1ccc([C@H]2[C@H](C(=O)O)[C@@H](c3ccc4c(c3)OCO4)CN2CC(=O)Nc2c(CC)cccc2CC)cc1
target	effect on	remaining binding [%]
MET (Homo sapiens, UniProt P08581)	cell-free assay	100
MARK1 (Homo sapiens, UniProt Q9P0L2)	cell-free assay	100
DYRK1B (Homo sapiens, UniProt Q9Y463)	cell-free assay	100
BUB1 (Homo sapiens, UniProt O43683)	cell-free assay	98
KIT (Homo sapiens, UniProt P10721)	cell-free assay	85
PHKG2 (Homo sapiens, UniProt P15735)	cell-free assay	86
MELK (Homo sapiens, UniProt Q14680)	cell-free assay	65
CDC42BPB (Homo sapiens, UniProt Q9Y5S2)	cell-free assay	87
EPHA1 (Homo sapiens, UniProt P21709)	cell-free assay	86
CHEK1 (Homo sapiens, UniProt O14757)	cell-free assay	98
GRK1 (Homo sapiens, UniProt Q15835)	cell-free assay	68
ACVRL1 (Homo sapiens, UniProt P37023)	binding	99
Ribosomal protein S6 kinase alpha-4, C-terminal kinase domain (RPS6KA4, Homo sapiens, UniProt O75676)	cell-free assay	68
PDGFRA (Homo sapiens, UniProt P16234)	cell-free assay	80
CSNK1A1 (Homo sapiens, UniProt P48729)	cell-free assay	72
PAK1 (Homo sapiens, UniProt Q13153)	cell-free assay	89
STK24 (Homo sapiens, UniProt Q9Y6E0)	cell-free assay	84
MAP3K6 (Homo sapiens, UniProt O95382)	cell-free assay	65
ACVR2A (Homo sapiens, UniProt P27037)	cell-free assay	100
PIK3CA (Homo sapiens, UniProt P42336, E542K)	cell-free assay	75
MAP2K4 (Homo sapiens, UniProt P45985)	cell-free assay	80
RET (Homo sapiens, UniProt P07949)	cell-free assay	86

Block 2 — organism: Sarcocystis neurona; effect on: parasite growth; tested at: 10 µM; time: 96 h; reference: untreated
SMILES	log2 fold change
OCCN(CCO)c1nc(N2CCCCC2)c2nc(N(CCO)CCO)nc(N3CCCCC3)c2n1	0.33
CN1CCN(C2=Nc3ccccc3Oc3ccc(Cl)cc32)CC1	0.24
CCN(CC)CCOc1ccc(C(=C(Cl)c2ccccc2)c2ccccc2)cc1	-0.0452
N[C@@H](C(=O)N[C@@H]1C(=O)N2C(C(=O)O)=C(Cl)CS[C@H]12)c1ccccc1	0.23
CCCCc1oc2ccccc2c1C(=O)c1cc(I)c(OCCN(CC)CC)c(I)c1	-0.11
CCc1c(C)[nH]c2c1C(=O)C(CN1CCOCC1)CC2 (stereo not drawn)	0.33
Nc1nc(N)c2nc(-c3ccccc3)c(N)nc2n1	0.73
NS(=O)(=O)c1cc(C(=O)O)c(NCc2ccco2)cc1Cl	0.3
Cc1nccn1CC1CCc2c(c3ccccc3n2C)C1=O (stereo not drawn)	0.36
OC[C@H]1O[C@@H](Oc2cc(O)cc(/C=C/c3ccc(O)cc3)c2)[C@H](O)[C@@H](O)[C@@H]1O	0.28
COc1ccc(CC2c3cc(OC)c(OC)cc3CC[N+]2(C)CCC(=O)OCCCCCOC(=O)CC[N+]2(C)CCc3cc(OC)c(OC)cc3C2Cc2ccc(OC)c(OC)c2)cc1OC (stereo not drawn)	-0.1

Block 3 — species: human; matrix: microsomes or S9; tested at: 2 µM; time: 0.5 h
Structure (SMILES)	remaining compound
O=C(COc1ccc2c3ccccc3n(C(=O)c3cccc4ccccc34)c2c1)N1CCCC1	2.3%
Clc1ccc(CCN2CCN(Cc3nc[nH]n3)CC2)cc1Cl	95.1%
CN1CCN(c2nc(Nc3ccc(F)cc3)nc(Nc3ccc(F)cc3)n2)CC1	> 100%
C[C@@H](c1cn(-c2cccc[n+]2[O-])c(=O)c2c(C(F)(F)F)cccc12)N1C(=O)c2ccccc2C1=O	98.6%
Cc1n[nH]c(-c2ccc(O)cc2O)c1Oc1ccc(Cl)cc1	40%
O=S(=O)(c1cn[nH]c1)N1CCCC(c2cnccn2)C1 (stereo not drawn)	59.5%
CC(C)n1c(=O)ccc2cnc(Nc3ccc(N4CCN(C)CC4)cc3)nc21	82.7%

Block 4 — effect on: binding; tested at: 1 µM
Structure (SMILES): CN1CCN(C(=O)c2ccc(NC(=O)Nc3ccc(N(C)c4ccnc(Nc5ccc(CS(C)(=O)=O)cc5)n4)cc3)cc2)CC1
target	remaining binding [%]
KIT (Homo sapiens, UniProt P10721, L576P)	0
FLT3 (Homo sapiens, UniProt P36888, D835H)	0.8
AKT1 (Homo sapiens, UniProt P31749)	100
KIT (Homo sapiens, UniProt P10721, V559D/V654A)	9.1
DCLK2 (Homo sapiens, UniProt Q8N568)	79

Repeated from above (block 1):
target	effect on	remaining binding [%]
EPHA1 (Homo sapiens, UniProt P21709)	cell-free assay	86
BUB1 (Homo sapiens, UniProt O43683)	cell-free assay	98
DYRK1B (Homo sapiens, UniProt Q9Y463)	cell-free assay	100
GRK1 (Homo sapiens, UniProt Q15835)	cell-free assay	68
CHEK1 (Homo sapiens, UniProt O14757)	cell-free assay	98
KIT (Homo sapiens, UniProt P10721)	cell-free assay	85
